Assay results of several laboratories.
Protocols differ between the studies behind these lines. ± gives the spread as reported.
Matrix: plasma

SMILES	test	test system	setting	Cmax
COc1cc2c(cc1O)CCN1C[C@@H](CC(C)C)[C@H](O)C[C@H]21	item: non-deuterated analyte	healthy human male	oral, 25 mg, geometric mean, [14C]-tetrabenazine dosed	2.73 ng/mL
CC1(C)CC[C@]2(NC(=O)C(C)(F)F)CC[C@]3(C)[C@H](C(=O)C=C4[C@@]5(C)C=C(C#N)C(=O)C(C)(C)[C@@H]5CC[C@]43C)[C@@H]2C1	geometric least squares mean	human	oral, dose not given, together with: itraconazole	119 ng/mL
CCCCCCCCCCCCCCCC(=O)N[C@@H](CCCCN)C(=O)N[C@@H](CCCCN)C(=O)N[C@@H](CO)C(=O)N[C@@H](CCCNC(=N)N)C(=O)N[C@@H](C)C(=O)N[C@@H](CC(C)C)C(=O)N[C@@H](Cc1ccccc1)C(N)=O	UHPLC-MS/MS	human patients	intravenous, 0.3 mg/kg over 2 h	1430 ng/mL
CC(CCC(=O)NCC(=O)O)C1CCC2C3CCC4CC(OC5OC(C(=O)O)C(O)C(O)C5O)CCC4(C)C3CC(O)C12C (centres unmarked)	–	human	concentration not given, endogenous control diurnal	303 ± 75 nM
CN(C(=O)C(C)(C)c1cc(C(F)(F)F)cc(C(F)(F)F)c1)c1cnc(N2C[C@H]3COCCN3C[C@H]2CO)cc1-c1ccc(F)cc1CO	–	human	oral, 120 mg, geometric mean	55.2 ng/mL
O=C(O)[C@H]1O[C@@H](N(Cc2ccc(C(F)(F)F)nc2)c2ccc(Cc3c[nH]c4ncc(Cl)cc34)cn2)[C@H](O)[C@@H](O)[C@@H]1O	–	human, male	oral, 400 mg of [14C]-pexidartinib single dose, as metabolite	3400 ng/mL
CC(C)C[C@H](NC(=O)[C@H](CCCN)NC(=O)CNC(=O)[C@@H](NC(=O)[C@H](C)NC(=O)[C@@H]1CSCSC[C@H](NC(=O)CC[C@H](N)C(=O)O)C(=O)N[C@@H](CC(N)=O)C(=O)N[C@@H]([C@@H](C)O)C(=O)N[C@@H](C)C(=O)N[C@@H]([C@@H](C)O)C(=O)N1)[C@@H](C)O)C(=O)N[C@@H](C)C(=O)N[C@@H](CCC(=O)O)C(=O)N[C@@](C)(Cc1ccccc1)C(=O)N[C@@H](CC(C)C)C(=O)N[C@H](C(=O)N[C@@H](CCCNC(=N)N)C(=O)N[C@@H](CO)C(=O)N[C@@H](CO)C(=O)N[C@@H](CC(N)=O)C(=O)N(C)[C@@H](CC(N)=O)C(=O)N[C@@H](Cc1ccccc1)C(=O)NCC(=O)N1CCC[C@H]1C(=O)N[C@@H](CCCCNC(=O)CC[C@H](NC(=O)CC[C@H](NC(=O)CCCCCCCCCCCCCCCCCCC(=O)O)C(=O)O)C(=O)O)C(=O)N[C@@H](CC(C)C)C(=O)N1CCC[C@H]1C(=O)N1CCC[C@H]1C(=O)N[C@H](C(=O)N[C@@H](CCC(=O)O)C(=O)N[C@H](C(=O)NCC(=O)N[C@@H](CO)C(=O)N[C@@H](CC(N)=O)C(=O)N[C@H](C(=O)N[C@@H](Cc1ccc(O)cc1)C(N)=O)[C@@H](C)O)C(C)C)[C@@H](C)O)C(C)C	–	healthy human	subcutaneous, 4 mg single dose, geometric LS mean	344 ng/mL
CC[C@H](C)[C@@H]1NC(=O)[C@H](Cc2ccc(O)cc2)NC(=O)CCCSC[C@@H](C(=O)N(CC(=O)N[C@@H](CC(C)C)C(=O)NCC(N)=O)Cc2ccc(F)cc2)NC(=O)[C@H](CC(N)=O)NC(=O)[C@H](CCC(N)=O)NC1=O	–	healthy human	intranasal, 400 µg every 3 h, after second dose	0.26 ng/mL
C[C@H](CCC(=O)NCC(=O)O)[C@H]1CC[C@H]2[C@@H]3[C@H](O)C[C@@H]4C[C@H](OS(=O)(=O)O)CC[C@]4(C)[C@H]3CC[C@]12C	–	human	concentration not given, endogenous baseline diurnal	154 ± 24 nM
CCCCCCCOc1ccc(CC[C@](N)(CO)COP(=O)(O)O)cc1C(F)(F)F	–	healthy human males	0.125 mg, day 1	0.31 ng/mL
C[C@]12C[C@H](c3ccc(S(C)(=O)=O)cc3)C3=C4CC[C@@H](O)C=C4CC[C@H]3[C@@H]1CC[C@@]2(O)C(F)(F)C(F)(F)F	–	human	oral, 5 mg multiple doses, day 28	8.75 ng/mL

For quick reference, copied from above:
SMILES	test	test system	setting	Cmax
CC(CCC(=O)NCC(=O)O)C1CCC2C3CCC4CC(OC5OC(C(=O)O)C(O)C(O)C5O)CCC4(C)C3CC(O)C12C (centres unmarked)	–	human	concentration not given, endogenous control diurnal	303 ± 75 nM
CN(C(=O)C(C)(C)c1cc(C(F)(F)F)cc(C(F)(F)F)c1)c1cnc(N2C[C@H]3COCCN3C[C@H]2CO)cc1-c1ccc(F)cc1CO	–	human	oral, 120 mg, geometric mean	55.2 ng/mL
